{"data": "Experimental data gathered from unrelated publications", "note": "Compare with care: the assays were run in different laboratories.", "sequence of UniProt O43293 (whole entry, looked up)": "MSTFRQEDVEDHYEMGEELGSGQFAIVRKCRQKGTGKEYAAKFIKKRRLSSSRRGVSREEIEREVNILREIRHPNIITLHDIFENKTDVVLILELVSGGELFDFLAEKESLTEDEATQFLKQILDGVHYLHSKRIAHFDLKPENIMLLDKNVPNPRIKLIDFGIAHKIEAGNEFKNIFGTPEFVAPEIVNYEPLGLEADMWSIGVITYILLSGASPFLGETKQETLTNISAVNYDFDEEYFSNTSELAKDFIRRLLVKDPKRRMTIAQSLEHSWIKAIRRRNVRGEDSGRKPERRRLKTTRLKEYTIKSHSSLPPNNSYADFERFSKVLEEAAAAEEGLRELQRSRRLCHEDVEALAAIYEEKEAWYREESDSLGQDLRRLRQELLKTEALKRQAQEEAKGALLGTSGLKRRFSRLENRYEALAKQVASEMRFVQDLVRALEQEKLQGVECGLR"}
{"SMILES": "CO[C@H]1C[C@@H]2CC[C@@H](C)[C@@](O)(O2)C(=O)C(=O)N2CCCC[C@H]2C(=O)O[C@H]([C@H](C)C[C@@H]2CC[C@@H](OC(=O)NCCOCCOCCOCCOCCOCCOCCOCCOCCC(=O)N3CCc4cc(Cn5nc(-c6ccc7oc(N)nc7c6)c6c(N)ncnc65)ccc4C3)[C@H](OC)C2)C[C@@H](O)[C@H](C)/C=C(\\C)[C@@H](O)[C@@H](OC)C(=O)[C@H](C)C[C@H](C)/C=C/C=C/C=C/1C", "test system": "patients with advanced solid tumours", "setting": "intravenous, 8 mg weekly, grade 3 or higher", "measurement": "AE leading to dose reduction", "value": "0%"}
{"SMILES": "CC(C)[C@H](N)C(=O)NCCCS(=O)(=O)O", "test system": "human, plasma", "setting": "oral, 265 mg twice daily, 8 h, week 65", "measurement": "plasma concentration", "value": "52.5 ng/mL"}
{"SMILES": "CC1(C)[C@H](C(=O)O[C@H](C#N)c2cccc(Oc3ccccc3)c2)[C@@H]1C=C(Br)Br", "assay": "item: CYP2B6", "test system": "human, age 5 years, recombinant human CYP2B6", "setting": "0.1 µM", "measurement": "enzyme contribution to clearance", "value": "0.44%"}
{"SMILES": "[O-][S+]1CCc2nc(N3CCC(c4ncc(Cl)cn4)CC3)nc(NC3(CO)CCC3)c21 (stereo not drawn)", "assay": "item: Nausea", "test system": "healthy male humans", "setting": "6 mg twice daily", "measurement": "adverse event incidence", "value": "12.5%"}
{"SMILES": "COc1ccc(C[C@@H]2NC(=O)[C@H]([C@@H](C)O)NC(=O)[C@@H]3[C@@H]4CCN3C(=O)[C@@H]3Cc5cn(c6ccc(F)cc56)CCCCCCN(Cc5ccc(cc5)CCNC(=O)[C@]5(C)CCCN5C2=O)C(=O)CCC(=O)N[C@@H](C)C(=O)N[C@H](CNC(=O)CCCCC[N+](C)(C)C)C(=O)N[C@@H](Cc2cccc(c2)CNC(=O)CO4)C(=O)N3)cc1", "assay": "item: ligament sprain", "test system": "human", "setting": "dose not given", "measurement": "participants with adverse event", "value": "2%"}
{"SMILES": "CC[C@H](C)CCCCC(=O)N[C@@H](CCN)C(=O)N[C@H](C(=O)N[C@@H](CCN)C(=O)N[C@H]1CCNC(=O)[C@H]([C@@H](C)O)NC(=O)[C@H](CCN)NC(=O)[C@H](CCN)NC(=O)[C@H](CC(C)C)NC(=O)[C@@H](Cc2ccccc2)NC(=O)[C@H](CCN)NC1=O)[C@@H](C)O", "assay": "ultracentrifugation", "test system": "human patients, plasma", "setting": "intravenous, predose samples, median", "measurement": "unbound fraction", "value": 0.351}
{"SMILES": "C[C@]1(O)C[C@@](N)(c2ccc(-c3nc4n(c3-c3ccccc3)COc3ccncc3-4)cc2)C1", "test system": "human, advanced or metastatic solid tumours", "setting": "20 mg once daily, phase I dose escalation", "measurement": "patients with serious AE", "value": "66.7%"}
{"SMILES": "COC[C@@]12CC[C@H](OC)[C@]34C(C([C@H](OC)[C@H]13)[C@]1(OC(C)=O)[C@H]3[C@@H](OC(=O)c5ccccc5)[C@](O)(C[C@H]34)[C@@H](OC)[C@@H]1O)N(C)C2", "test system": "Sprague-Dawley rat, plasma", "setting": "oral, dose not given, with H in PCW extract", "measurement": "Tmax", "value": "0.75 h"}
{"SMILES": "CC[C@H](C)[C@H](NC(=O)[C@H](Cc1ccccc1)NC(=O)[C@H](CCC(=O)O)NC(=O)[C@H](CCCNC(=N)N)NC(=O)[C@H](C)NC(=O)[C@H](C)NC(=O)[C@H](CCC(N)=O)NC(=O)[C@H](CCC(=O)O)NC(=O)[C@H](CCC(=O)O)NC(=O)[C@H](CC(C)C)NC(=O)[C@H](Cc1ccc(O)cc1)NC(=O)[C@H](CO)NC(=O)[C@H](CO)NC(=O)[C@@H](NC(=O)[C@H](CC(=O)O)NC(=O)[C@H](CO)NC(=O)[C@@H](NC(=O)[C@H](Cc1ccccc1)NC(=O)[C@@H](NC(=O)CNC(=O)[C@H](CCC(=O)O)NC(=O)[C@H](C)NC(=O)CCc1cnc[nH]1)[C@@H](C)O)[C@@H](C)O)C(C)C)C(=O)N[C@@H](C)C(=O)N[C@@H](Cc1c[nH]c2ccccc12)C(=O)N[C@@H](CC(C)C)C(=O)N[C@H](C(=O)N[C@@H](CCCNC(=N)N)C(=O)NCC(=O)N[C@@H](CCCNC(=N)N)C(=O)N[C@@H](CCCCNC(=O)COCCOCCNC(=O)COCCOCCNC(=O)CC[C@H](NC(=O)CCCCCCCCCCCCCCCCC(=O)O)C(=O)O)C(=O)NCC(=O)NCC(=O)N[C@@H](CO)C(=O)N[C@@H](CCSC)C(=O)N[C@H](C(=O)N[C@@H](CCCCNc1c(NCCCCCN(O)C(=O)CCC(=O)NCCCCCN(O)C(=O)CCC(=O)NCCCCCN(O)C(C)=O)c(=O)c1=O)C(=O)O)C(C)C)C(C)C [zirconium-89 labelled]", "assay": "ex vivo gamma counting", "test system": "male Sprague-Dawley rats, pancreas", "setting": "intravenous, 1 nmol, 72 h, mean of 3 animals", "measurement": "tissue uptake", "value": "0.119 %ID/g"}
{"SMILES": "C[C@@H]1OC(=O)NN=C1c1ccc(-c2ccc(F)cc2)c(C(F)(F)F)c1", "assay": "phase I trial, item: Cough all grades", "test system": "human patients", "setting": "10 mg loading then 0.5 mg daily", "measurement": "patients with adverse event", "value": "0%"}
{"SMILES": "COc1cccc2c1CCCC2CCCN1CCN(C2CCCCC2)CC1 (stereo not drawn)", "test system": "CD-1 mouse, male, lung", "setting": "intraperitoneal, 10 mg/kg", "measurement": "half-life", "value": "3.63 h"}
{"SMILES": "C[C@H]1CN(c2n[nH]c3nc(N[C@H]4CC[C@H](NS(=O)(=O)CCC(F)(F)F)CC4)ncc23)CCO1", "tested on": "Death-associated protein kinase 3 (DAPK3, Homo sapiens, UniProt O43293)", "assay": "inhibitor, Kinobeads competition profiling", "setting": "0.032 µM", "how to read": "baseline: vehicle", "measurement": "relative abundance", "value": 1.02}
{"SMILES": "O[C@H]1CCCN[C@@H]1CCCn1cnc2c(Cl)c(Cl)ccc21", "test system": "healthy humans, plasma", "setting": "oral, 150 mg, with: pirfenidone 600 mg", "measurement": "AUCtau", "value": "1490 ng·h/mL"}
{"SMILES": "Cc1cccc(Cn2nc(C3CC3)c3c(NC(=O)c4cnc5cc(OCCN6CCN(C)CC6)ccn45)cccc32)n1", "assay": "item: ALT increased", "test system": "human advanced solid tumours", "setting": "oral, dose not given, all-causality,, all doses", "measurement": "adverse events incidence", "value": "36.8%"}
{"SMILES": "COc1cc2c(Oc3ccc4[nH]c(C)cc4c3F)ccnc2cc1OCC1(N)CC1", "test system": "paediatric recurrent refractory sarcoma", "setting": "8 mg", "measurement": "Hyperthyroidism incidence", "value": "0%"}
{"note": "Repeated from above:"}
{"SMILES": "CC[C@H](C)CCCCC(=O)N[C@@H](CCN)C(=O)N[C@H](C(=O)N[C@@H](CCN)C(=O)N[C@H]1CCNC(=O)[C@H]([C@@H](C)O)NC(=O)[C@H](CCN)NC(=O)[C@H](CCN)NC(=O)[C@H](CC(C)C)NC(=O)[C@@H](Cc2ccccc2)NC(=O)[C@H](CCN)NC1=O)[C@@H](C)O", "assay": "ultracentrifugation", "test system": "human patients, plasma", "setting": "intravenous, predose samples, median", "measurement": "unbound fraction", "value": 0.351}
{"SMILES": "C[C@]1(O)C[C@@](N)(c2ccc(-c3nc4n(c3-c3ccccc3)COc3ccncc3-4)cc2)C1", "test system": "human, advanced or metastatic solid tumours", "setting": "20 mg once daily, phase I dose escalation", "measurement": "patients with serious AE", "value": "66.7%"}
